# Results gathered from unrelated publications.
# Amino acid sequences for entries named in this document (tags omitted). Residues count along the entry.
# UniProt P26045, 646-901 limits assumed: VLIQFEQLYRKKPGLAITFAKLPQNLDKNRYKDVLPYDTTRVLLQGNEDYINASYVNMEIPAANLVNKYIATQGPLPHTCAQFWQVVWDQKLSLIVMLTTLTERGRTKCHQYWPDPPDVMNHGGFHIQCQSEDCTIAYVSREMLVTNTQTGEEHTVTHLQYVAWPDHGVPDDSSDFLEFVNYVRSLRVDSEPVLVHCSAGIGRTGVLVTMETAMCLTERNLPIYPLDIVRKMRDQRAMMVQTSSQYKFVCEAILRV
# UniProt Q14790, 214-479 D374A/D384A/C409S/G418A/C433S limits assumed: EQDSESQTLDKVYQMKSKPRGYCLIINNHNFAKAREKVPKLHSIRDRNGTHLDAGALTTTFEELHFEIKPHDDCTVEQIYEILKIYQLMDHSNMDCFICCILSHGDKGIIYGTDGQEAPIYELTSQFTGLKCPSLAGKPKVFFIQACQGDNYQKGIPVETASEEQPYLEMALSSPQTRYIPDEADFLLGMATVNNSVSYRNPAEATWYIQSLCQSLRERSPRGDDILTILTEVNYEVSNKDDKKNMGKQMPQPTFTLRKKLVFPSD
# UniProt O94788, 27-518 limits assumed: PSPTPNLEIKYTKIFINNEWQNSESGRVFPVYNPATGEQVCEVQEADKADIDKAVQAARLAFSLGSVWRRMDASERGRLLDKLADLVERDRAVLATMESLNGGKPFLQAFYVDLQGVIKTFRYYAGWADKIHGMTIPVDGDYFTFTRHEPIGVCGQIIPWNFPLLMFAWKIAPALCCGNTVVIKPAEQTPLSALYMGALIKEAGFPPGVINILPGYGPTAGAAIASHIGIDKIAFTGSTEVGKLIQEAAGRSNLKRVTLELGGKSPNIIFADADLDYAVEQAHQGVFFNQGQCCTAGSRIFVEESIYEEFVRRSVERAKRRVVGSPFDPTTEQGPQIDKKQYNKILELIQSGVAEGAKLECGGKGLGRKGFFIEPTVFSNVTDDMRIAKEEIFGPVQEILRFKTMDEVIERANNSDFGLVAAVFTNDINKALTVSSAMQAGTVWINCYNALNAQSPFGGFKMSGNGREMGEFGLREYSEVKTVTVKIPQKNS
# Numbered parts are unrelated; each lists some results of a single study. ± marks the error that the study gave.

# Set 1 — organism: Saccharomyces cerevisiae; observed: cell growth; technique: doubling time; strain: wild type
Compound,IC50 [µM]
O=C(c1ccc(F)cc1)N1CCN(c2ccccc2)CC1,> 200
O=C(c1ccc(Cl)c([N+](=O)[O-])c1)N1CCN(c2ccccc2)CC1,33.2 ± 6.9
O=C(c1ccc(Cl)c([N+](=O)[O-])c1)N1CCN(c2cccc(C(F)(F)F)c2)CC1,104 ± 33.1
O=C(c1ccccc1Cl)N1CCN(c2ccc(F)cc2)CC1,> 200
COc1ccccc1N1CCN(C(=O)c2cc([N+](=O)[O-])ccc2Cl)CC1,> 200

# Mixed results
# PTPN3: Tyrosine-protein phosphatase non-receptor type 3 (PTPN3, Homo sapiens, UniProt P26045)
Structure (SMILES),target or system,test,system,setting,scale,endpoint,value
O=C(c1ccc(N2CCOCC2)cc1)N1CCC[C@@H](N(C(=O)CCl)c2ccccc2)C1,"Caspase-8 (CASP8, Homo sapiens, UniProt Q14790, C409S/C433S/D374A/D384A/G418A)",competitive gel-based ABPP,,,reference: G418A mutant over procaspase-8,apparent IC50 ratio,10 fold
CC(=O)N[C@@H](Cc1c[nH]cn1)C(=O)N[C@@H](CC(=O)O)C(=O)NCC(=O)N[C@@H](CC(C)C)C(=O)N[C@@H](Cc1ccc(O)cc1)C(=O)N[C@@H](CCC(N)=O)C(=O)NCC(=O)N[C@@H](CC(C)C)C(=O)N[C@@H](CO)C(=O)N[C@H](C(=O)N[C@@H](C)C(=O)N[C@H](C(=O)N[C@@H](CCCCN)C(=O)N[C@@H](CC(=O)O)C(=O)N[C@H](C(=O)N[C@@H](Cc1cc(=O)oc2cc(OP(=O)(O)O)ccc12)C(=O)N[C@@H](CC(=O)O)C(=O)N[C@@H](C)C(=O)N[C@@H](CC(C)C)C(=O)N[C@@H](Cc1c[nH]cn1)C(N)=O)[C@@H](C)O)[C@@H](C)O)[C@@H](C)O,PTPN3,"peptide hydrolysis, substrate",,"pH 6.0, 37 °C, TCR zeta-chain ITAM peptide",,Km,25.1 µM
CCOc1ccsc1C(=O)N1CCN(c2ccc([N+](=O)[O-])c(N3CCCC3)c2)CC1,"ALDH1A2 (Homo sapiens, UniProt O94788)","thermal stability, differential scanning fluorimetry",,"200 µM, without NAD",,ΔTm,5 ± 0.03 °C
CC(=O)N[C@@H](Cc1c[nH]cn1)C(=O)N[C@@H](CC(=O)O)C(=O)NCC(=O)N[C@@H](CC(C)C)C(=O)N[C@@H](Cc1ccc(OP(=O)(O)O)cc1)C(=O)N[C@@H](CCC(N)=O)C(=O)NCC(=O)N[C@@H](CC(C)C)C(=O)N[C@@H](CO)C(=O)N[C@H](C(=O)N[C@@H](C)C(=O)N[C@H](C(=O)N[C@@H](CCCCN)C(=O)N[C@@H](CC(=O)O)C(=O)N[C@H](C(=O)N[C@@H](Cc1cc(=O)oc2cc(OP(=O)(O)O)ccc12)C(=O)N[C@@H](CC(=O)O)C(=O)N[C@@H](C)C(=O)N[C@@H](CC(C)C)C(=O)N[C@@H](Cc1c[nH]cn1)C(N)=O)[C@@H](C)O)[C@@H](C)O)[C@@H](C)O,PTPN3,"peptide hydrolysis, substrate",,"pH 6.0, 37 °C, TCR zeta-chain ITAM peptide",,Km,19.1 µM
CN(C)S(=O)(=O)c1ccc(NCCCCN2CCC(Nc3nc4ccccc4n3Cc3ccc(F)cc3)CC2)c2nonc12,,,hERG-HEK293 cell membrane,"1 µM, 20 min, Tris-HCl buffer",,emission maximum,550 nm

# Some of these lines once more (mixed results):
Structure (SMILES),target or system,test,system,setting,scale,endpoint,value
CC(=O)N[C@@H](Cc1c[nH]cn1)C(=O)N[C@@H](CC(=O)O)C(=O)NCC(=O)N[C@@H](CC(C)C)C(=O)N[C@@H](Cc1ccc(OP(=O)(O)O)cc1)C(=O)N[C@@H](CCC(N)=O)C(=O)NCC(=O)N[C@@H](CC(C)C)C(=O)N[C@@H](CO)C(=O)N[C@H](C(=O)N[C@@H](C)C(=O)N[C@H](C(=O)N[C@@H](CCCCN)C(=O)N[C@@H](CC(=O)O)C(=O)N[C@H](C(=O)N[C@@H](Cc1cc(=O)oc2cc(OP(=O)(O)O)ccc12)C(=O)N[C@@H](CC(=O)O)C(=O)N[C@@H](C)C(=O)N[C@@H](CC(C)C)C(=O)N[C@@H](Cc1c[nH]cn1)C(N)=O)[C@@H](C)O)[C@@H](C)O)[C@@H](C)O,PTPN3,"peptide hydrolysis, substrate",,"pH 6.0, 37 °C, TCR zeta-chain ITAM peptide",,Km,19.1 µM
CN(C)S(=O)(=O)c1ccc(NCCCCN2CCC(Nc3nc4ccccc4n3Cc3ccc(F)cc3)CC2)c2nonc12,,,hERG-HEK293 cell membrane,"1 µM, 20 min, Tris-HCl buffer",,emission maximum,550 nm
